Results of several laboratories.
Protocols differ between the studies behind these lines. ± marks the error that the study gave.
Target: Sodium-dependent noradrenaline transporter (SLC6A2, Homo sapiens, UniProt P23975)
Chain of UniProt P23975 (whole entry, looked up): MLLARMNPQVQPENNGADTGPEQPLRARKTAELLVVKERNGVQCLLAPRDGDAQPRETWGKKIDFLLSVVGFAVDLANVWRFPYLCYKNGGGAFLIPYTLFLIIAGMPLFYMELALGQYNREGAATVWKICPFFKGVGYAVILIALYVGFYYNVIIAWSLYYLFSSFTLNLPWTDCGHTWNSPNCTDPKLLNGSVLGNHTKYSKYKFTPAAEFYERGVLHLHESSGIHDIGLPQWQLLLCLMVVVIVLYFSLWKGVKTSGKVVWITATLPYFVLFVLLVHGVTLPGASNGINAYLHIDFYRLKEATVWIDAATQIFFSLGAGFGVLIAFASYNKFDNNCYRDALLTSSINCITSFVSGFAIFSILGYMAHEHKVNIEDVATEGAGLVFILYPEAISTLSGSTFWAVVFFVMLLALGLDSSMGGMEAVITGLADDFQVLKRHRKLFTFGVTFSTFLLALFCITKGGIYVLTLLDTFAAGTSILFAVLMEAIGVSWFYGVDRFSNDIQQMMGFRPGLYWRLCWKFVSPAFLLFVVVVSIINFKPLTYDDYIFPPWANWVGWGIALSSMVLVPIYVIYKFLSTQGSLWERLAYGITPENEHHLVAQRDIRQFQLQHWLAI
Action: inhibitor

SMILES = CN1[C@H]2CC[C@@H]1[C@@H](C(=O)N1CCCC1)[C@@H](c1ccc(I)cc1)C2; observed = noradrenaline reuptake; cell line = HEK293 expressing SLC6A2; time = 10 min; temperature = room temperature; together with = [3H]noradrenaline 20 nM; IC50 = 0.935 ± 0.14 µM
SMILES = NCCc1ccc(O)cc1; observed = transporter uptake; technique = radiometric; IC50 = 1.03 µM
SMILES = CCc1ccc2[nH]c3nc(SCCNS(=O)(=O)c4ccc(NC(C)=O)cc4)nnc3c2c1; observed = transporter uptake; technique = radiometric; IC50 = 119 µM
SMILES = CNC(C)Cc1ccc(O)c(O)c1 (stereo not shown); observed = transporter uptake; IC50 = 0.35 µM
SMILES = COc1cc(CC(C)N)c(OC)cc1C (single isomer, unassigned; (-)); observed = transporter uptake; technique = radiometric; IC50 = > 70 µM
SMILES = NCCc1ccccc1; observed = transporter uptake; technique = radiometric; IC50 = 0.385 µM
SMILES = COc1ccc([C@]2(O)OCC(C)(C)N[C@H]2C)cc1; observed = [3H]norepinephrine uptake; cell line = HEK293 expressing human NET; together with = [3H]norepinephrine; IC50 = > 10 µM
SMILES = CNC(C)C(=O)c1ccc(O)c(O)c1 (stereo not shown); observed = transporter uptake; IC50 = 0.78 µM
SMILES = CCN(CC)C(=O)[C@@H]1C=C2c3cccc4[nH]cc(c34)C[C@H]2N(C)C1; observed = transporter uptake; technique = radiometric; IC50 = > 100 µM
SMILES = CNC(C)Cc1ccc(O)c(OC)c1 (stereo not shown); observed = transporter uptake; IC50 = 10 µM
SMILES = COC(=O)[C@H]1C(c2ccc(I)cc2)C[C@@H]2CC[C@H]1N2C (stereo partly shown); observed = transporter uptake; technique = radiometric; IC50 = 0.0379 µM
SMILES = CC(N)C(=O)c1ccc2c(c1)OCO2 (stereo not shown); observed = transporter uptake; IC50 = 2.3 µM
SMILES = CC1NC(C)(C)COC1(O)c1cccnc1 (stereo not shown); observed = [3H]norepinephrine uptake; cell line = HEK293 expressing human NET; together with = [3H]norepinephrine; IC50 = > 10 µM
